Measurements collected from several papers.
Protocols differ between the studies behind these lines. Values joined by “and” are separate records of one study, mostly repeats; a detail may differ.
Target: Calcium/calmodulin-dependent protein kinase kinase 2 (CAMKK2, Homo sapiens, UniProt Q96RR4)

| effect on | mode | method | tested at | relative to | measurement | result | Structure (SMILES) |
| --- | --- | --- | --- | --- | --- | --- | --- |
| binding | – | – | 0.1 µM | – | remaining binding | 100% | Cc1cnc2nc1Nc1cccc(c1)COC/C=C/COCc1cc(ccc1OCCN1CCOCC1)N2 |
| binding | – | competition with immobilised ligand | 1 µM | – | remaining binding | 100% | Nc1ncc2c(n1)-c1c([nH]c3ccc(C4=CCOCC4)cc13)CCC2 |
| enzyme activity | – | Dundee kinase panel | 10 µM | – | remaining activity | 89% | Cc1cccc(-c2ccc3nc(NC(=O)C4CCOCC4)nn3c2)c1 |
| enzyme activity | inhibitor | – | 0.25 µM | – | remaining activity | 2% | c1ccc2c(Nc3cc(C4CCC4)[nH]n3)nc(Nc3ccc4nc[nH]c4c3)nc2c1 |
| – | inhibitor | – | 1 µM | control | remaining activity | 100% | COc1cc(Nc2nc(C)cc(-c3cnn4nc(OC)ccc34)n2)cc(C(F)(F)F)c1 |
| kinase activity | inhibitor | ProQinase kinase profiling | 25 µM | control | remaining activity | 101% and 96% | COCC12C(=O)NC3C4(C(OC)CC1O)C1CC5(O)C(OC)C(O)C(OC(C)=O)(C1C5OC(=O)c1ccccc1)C3(O)C(OC)C24 (centres unmarked) |
| enzyme activity | inhibitor | – | 1 µM | – | inhibition | -3% | CN1CC[C@@H](COc2cnc(C#N)cc2-c2ccn3nc(NC(=O)C4CC4)cc3c2)C1 |
| – | – | KinomeScan | 0.1 µM | untreated | remaining binding | 99% | CNC1C[S+]2CC[S+]3CC[S+](C1)[Ru-4]321([N]=C=S)[n]2c3ccc(OC)cc3c3c4c(c5cc(F)c[n+]1c5c32)C(=O)NC4=O (centres unmarked) |
| binding | – | competition with immobilised ligand | 3 µM | – | remaining binding | 97% | COc1c(Cl)cccc1Nc1c(-c2ccncc2C#C[C@@]2(C)CCCN2C(=O)/C=C/CN(C)C)[nH]c2c1C(=O)NCC2 |
| enzyme activity | – | Dundee kinase panel | 10 µM | – | remaining activity | 85% | Cc1cccc(-c2ccc3nc(NC(=O)C4CCCO4)nn3c2)c1 (centres unmarked) |
| enzyme activity | inhibitor | – | 10 µM | – | inhibition | 13% | NC(=O)C[C@H]1CCc2sc3ncnc(O[C@H]4CC[C@H](N5CCOCC5)CC4)c3c21 |
| enzyme activity | inhibitor | – | 0.1 µM | – | inhibition | 6% | CN1CCN(Cc2ccc(-c3ccc(CO[C@H]4CCC[C@@H]4NC(=O)c4cc(-c5cnn(C)c5)cnc4N)cc3)cc2)CC1 |
| cell-free assay | inhibitor | – | 1 µM | – | inhibition | -0.5% | C=CC(=O)N1Cc2nc(-c3cc(-c4cc(Cl)cnc4Cl)c(F)cc3F)n(-c3ccncn3)c2C1 |
| binding | – | competition with immobilised ligand | 1 µM | – | remaining binding | 90% | CNC(=O)C1CCN(c2cc(C)c(F)cc2NC(=O)c2ccc(-c3cc(O)ccc3C)c(C)c2)CC1 |

Some of these lines once more:
| effect on | mode | method | tested at | relative to | measurement | result | Structure (SMILES) |
| --- | --- | --- | --- | --- | --- | --- | --- |
| enzyme activity | inhibitor | – | 0.1 µM | – | inhibition | 6% | CN1CCN(Cc2ccc(-c3ccc(CO[C@H]4CCC[C@@H]4NC(=O)c4cc(-c5cnn(C)c5)cnc4N)cc3)cc2)CC1 |
| cell-free assay | inhibitor | – | 1 µM | – | inhibition | -0.5% | C=CC(=O)N1Cc2nc(-c3cc(-c4cc(Cl)cnc4Cl)c(F)cc3F)n(-c3ccncn3)c2C1 |
